{"data": "Measurements of several laboratories", "note": "A part holds a random share of what one study measured. Positions count from the first letter of the parent shown."}
{"data": "Series 1", "target": "Ras GTPase-activating protein-binding protein 1, full length (G3BP1, Homo sapiens, UniProt Q13283)", "method": "RNA Bind-n-Seq", "molecule type": "RNA", "matrix": "in vitro", "concentration": "200 nM", "notes": "whole 134-nt RNA, ends assumed", "added": "150 mM LiCl", "relative to": "input library", "direction": "higher = stronger binding", "all molecules": "7-deaza-guanosine replaces G", "all sequences stand within": "GGGAGUUCUACAGUCCGACGAUC … UGGAAUUCUCGGGUGUCAAGG", "chain of UniProt Q13283 (whole entry, looked up)": "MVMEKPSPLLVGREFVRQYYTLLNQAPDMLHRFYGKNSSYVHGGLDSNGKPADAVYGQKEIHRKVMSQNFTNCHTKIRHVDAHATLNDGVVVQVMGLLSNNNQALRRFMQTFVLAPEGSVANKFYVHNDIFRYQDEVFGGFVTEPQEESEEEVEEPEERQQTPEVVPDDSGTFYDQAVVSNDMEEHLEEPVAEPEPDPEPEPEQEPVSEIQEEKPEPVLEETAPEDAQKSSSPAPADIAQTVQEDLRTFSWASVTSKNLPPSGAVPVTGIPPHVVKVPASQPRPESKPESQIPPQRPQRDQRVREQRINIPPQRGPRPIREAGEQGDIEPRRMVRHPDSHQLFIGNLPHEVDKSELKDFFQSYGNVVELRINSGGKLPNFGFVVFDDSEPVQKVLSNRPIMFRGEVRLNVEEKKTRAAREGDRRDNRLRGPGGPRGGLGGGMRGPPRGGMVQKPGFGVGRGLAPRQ"}
{"Strand": "AGUCCUGUGCUACACAUCGUAUGUACCGAAUCGGGUGGGAAAAAAAGGGAAAAAGGGAAAGUAUUAUGUUACGCCGUUCGGAUCUGCACU", "log2 enrichment": -0.338}
{"Strand": "CCUGUGCUACACAUCGUAUGUACCGAAUCGGGCCCCCCCGGCCCCCCCGGGGCCCCCCCGGAAAGUAUUAUGUUACGCCGUUCGGAUCUG", "log2 enrichment": 0.331}
{"Strand": "UCCUCAAGUCCUGUGCUACACAUCGUAUGUACCGAAUCGGGGAGGAGGAGGGAAAGUAUUAUGUUACGCCGUUCGGAUCUGCACUUCCAG", "log2 enrichment": 0.39}
{"Strand": "CACAGACAACACGCACCCACACAGACACAGAGGGAAGGGGUUGGGAUGGGGACAGGGUGCACAGCAGGGCGGGGUAGGACCCCAGCGCCU", "log2 enrichment": -1.57}
{"Strand": "UGGGAGGUGGAUUUUGUUUAUUUUUUAAGCUCAUUUCCAGGGGUGGGAAUUUUUUUUUAAUAUGUGUCAUGAAUAAAGUUGUUUUUGAAA", "log2 enrichment": -0.866}
{"Strand": "CUCCUGGAGUGGAUCCGGCGCACCAUCCCCUGGCUGGAGGACCGUGUGCCCCAAAAGACUAUCCAGGAGAUGCAGCAGAAGCUGGAGGAC", "log2 enrichment": -2.69}
{"Strand": "ACCAUGCAGGUGGGCAUCUUUGGGAAGUGGGGCAAGGGGGGGAUAGGGAAAGGGGUAACACUUUGGGAACAGGUGGUCCCAGGUCGUUUC", "log2 enrichment": 0.393}
{"Strand": "GUCCUGUGCUACACAUCGUAUGUACCGAAUCGGGGAAAAAGGGGAAAAAGGGAAAAAGGAAAGUAUUAUGUUACGCCGUUCGGAUCUGCA", "log2 enrichment": 0.0344}
{"data": "Series 2", "target": "ABI1, truncated, D143A, DHFR fusion (Arabidopsis thaliana)", "method": "DHFR PCA, deep sequencing", "matrix": "yeast", "notes": "methotrexate growth selection, single substitutions", "added": "(+)-ABA 58 µM", "relative to": "wild-type fitted maximum", "direction": "higher = stronger binding", "starting sequence": "PYL1, truncated, DHFR fusion (Arabidopsis thaliana); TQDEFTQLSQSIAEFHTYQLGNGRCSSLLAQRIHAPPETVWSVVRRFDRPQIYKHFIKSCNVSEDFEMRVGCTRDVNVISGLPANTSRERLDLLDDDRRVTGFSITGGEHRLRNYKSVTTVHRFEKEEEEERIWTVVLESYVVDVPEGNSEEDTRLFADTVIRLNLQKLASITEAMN; partner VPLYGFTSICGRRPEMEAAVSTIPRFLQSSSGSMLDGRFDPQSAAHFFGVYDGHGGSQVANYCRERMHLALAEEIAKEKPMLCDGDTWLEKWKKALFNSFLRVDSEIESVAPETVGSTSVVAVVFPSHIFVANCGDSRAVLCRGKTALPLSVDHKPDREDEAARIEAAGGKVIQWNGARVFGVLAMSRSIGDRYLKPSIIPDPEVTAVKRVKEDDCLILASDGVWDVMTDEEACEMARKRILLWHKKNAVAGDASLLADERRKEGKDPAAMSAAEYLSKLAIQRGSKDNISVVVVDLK"}
{"Change": "S140G", "relative binding score [%]": 9.38}
{"Change": "Q2K", "relative binding score [%]": 77.3}
{"Change": "F103D", "relative binding score [%]": -5.94}
{"Change": "N177M", "relative binding score [%]": 79.8}
{"Change": "T135C", "relative binding score [%]": 84.9}
{"Change": "S59E", "relative binding score [%]": 87.2}
{"Change": "I162T", "relative binding score [%]": 19.2}
{"Change": "S11W", "relative binding score [%]": 83.4}
{"Change": "S150N", "relative binding score [%]": 78.4}
{"Change": "L156A", "relative binding score [%]": 82.8}
{"Change": "V145D", "relative binding score [%]": -6.31}
{"Change": "V44M", "relative binding score [%]": 47.8}
{"Change": "T73E", "relative binding score [%]": 89.5}
{"Change": "N85E", "relative binding score [%]": 80.8}
{"Change": "R88Q", "relative binding score [%]": 78}
{"Change": "A170D", "relative binding score [%]": 24.4}
{"Change": "E139K", "relative binding score [%]": 29.5}
{"Change": "V100Q", "relative binding score [%]": 39.8}
{"Change": "R123A", "relative binding score [%]": 101}
{"Change": "T160A", "relative binding score [%]": 60.4}
{"Change": "Q2D", "relative binding score [%]": 83.2}
{"Change": "L156Q", "relative binding score [%]": 71.6}
{"Change": "E38W", "relative binding score [%]": 64.7}
{"Change": "F15R", "relative binding score [%]": 39.1}
{"Change": "F124Y", "relative binding score [%]": 95.5}
{"data": "Series 3", "target": "RING finger protein unkempt homolog, zinc fingers 1-6, GST-SBP tag (UNK, Homo sapiens, UniProt Q9C0B0, residues 30-357)", "method": "RNA Bind-n-Seq", "molecule type": "RNA", "matrix": "in vitro", "concentration": "not given", "notes": "RNA with constant flanks, human and mouse sites, ends assumed", "relative to": "input RNA pool", "direction": "higher = stronger binding", "all sequences stand within": "GGGAGUUCUACAGUCCGACGAUC … CAACAGAGGAUUGAGCAUCA", "Construct (chain)": "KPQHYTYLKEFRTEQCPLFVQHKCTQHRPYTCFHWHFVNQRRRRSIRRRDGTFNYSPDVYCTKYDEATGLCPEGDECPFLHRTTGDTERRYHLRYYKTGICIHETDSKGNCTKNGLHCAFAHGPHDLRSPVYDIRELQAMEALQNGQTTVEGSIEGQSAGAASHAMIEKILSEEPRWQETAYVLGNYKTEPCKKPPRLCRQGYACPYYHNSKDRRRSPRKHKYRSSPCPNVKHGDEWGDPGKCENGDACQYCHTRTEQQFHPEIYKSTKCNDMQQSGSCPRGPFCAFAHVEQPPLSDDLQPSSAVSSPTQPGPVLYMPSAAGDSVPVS"}
{"Strand": "AACUGGGGCUUGGACUCAUAUAGUCAUAAAGAAGAUGCUUCAGCAUUUCCAGGAAAACGAGCCUUAAUUUCAUUUCUUUCCUGGUUUGAUUAUUGUGAUCAGCUCAUUAAGGAAGCCCAA", "bound/input enrichment [ratio]": 0.512}
{"Strand": "CUCCUAAAAACUGUACCAAUUAUUCAGAAUCAGAUGGAUGCACUUCUUGAUUUUAAUGUUAAUAGCAAUGAACUUACAAAUGGGGUAAUAAAUGCUGCCUUCAUGCUCCUGUUCAAAGAU", "bound/input enrichment [ratio]": 0.443}
{"Strand": "ACCUAUGAUCGAGUAUACCAUGCUGUGUCUGUUAUGCGGCAAAGCCGAAGAUACUAUCAGUAUUCUCCCUGAUGACCCCCGACAAAUGACUCUCUUAUUCUAAGGAUCCUUCUACAGAUC", "bound/input enrichment [ratio]": 0.0673}
{"Strand": "AAAUUCUACAAACAAGUUAUUGAUAAAGGCCAGACAAUUCCAGAGGACAUCUUAGGGAAAAUAGCAGUUUCUAUUGUAAAAGCAUUAGAACAUUUACAUAGUAAGCUGUCUGUCAUUCAC", "bound/input enrichment [ratio]": 0.677}
{"Strand": "AAGACACUGAUAGAGGCAGGCCUCCCACAGAAGGUGGCAGAAAGACUUGAUGAAAUAUUUCAGACAGGAUUGGUAGCUUAUGUGGAUCUUGAUGAAAGAGCAAUCGAUGCUCUCAGGGAG", "bound/input enrichment [ratio]": 0.319}
{"Strand": "GAUAAGAGCAUGCAAGACCGCUUGAGACUGGGCCACUUUACUACUGUCCGACACGGAGCCUCAUUUACUGAACAGUGGACAGAUGGUUAUGCUUUUCAGAAUCUUAUCAAGCAACAGGAA", "bound/input enrichment [ratio]": 0.146}
{"Strand": "GUACAGUAGACGAGGCUUCCUUGGAAUGGUUUGCCCCGCUGCAUUGGUUUGGGUUUAAGCUAGUUAUACUUCUGUCACUAUUCUAAGUUAAAUGCAAAACUUUCAAGUAGUUUUAAUGAA", "bound/input enrichment [ratio]": 0.627}
{"Strand": "UUCAUGUUCAUUAAUGAUUUGGAACAAUGCCAGUGGAUCCGACAGAAGUUUGAGACCCCUGGAAUCAUGCAGUUCACCAAUGAGGAGAAGCGGACCUUGCUGGCCAGGCUUGUACGAUCC", "bound/input enrichment [ratio]": 0.138}
{"data": "Series 4", "target": "CCNE2, cyclin fold, Cln2 fusion (human)", "method": "yeast growth competition, sequencing", "matrix": "yeast", "notes": "weak parent motif", "relative to": "not given", "direction": "higher = stronger binding", "starting sequence": "MICAL3 docking peptide (human); LQLRRQLSFSEDS; partner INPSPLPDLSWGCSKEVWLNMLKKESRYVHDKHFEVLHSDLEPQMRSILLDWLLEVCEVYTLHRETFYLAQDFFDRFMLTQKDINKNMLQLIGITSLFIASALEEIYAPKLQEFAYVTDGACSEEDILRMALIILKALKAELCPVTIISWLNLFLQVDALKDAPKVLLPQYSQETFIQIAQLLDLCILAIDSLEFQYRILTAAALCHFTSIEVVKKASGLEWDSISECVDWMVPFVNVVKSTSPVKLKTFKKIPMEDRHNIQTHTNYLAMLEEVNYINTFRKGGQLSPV"}
{"Change": "L3G", "normalised enrichment score": 0.659}
{"Change": "S8P", "normalised enrichment score": 0.366}
{"Change": "R5E", "normalised enrichment score": 0.044}
{"Change": "F9T", "normalised enrichment score": -0.0781}
{"Change": "R4V", "normalised enrichment score": 0.0414}
{"Change": "E11Y", "normalised enrichment score": 0.623}
{"Change": "S10Q", "normalised enrichment score": 0.163}
{"Change": "F9M", "normalised enrichment score": 0.0993}
{"Change": "R5T", "normalised enrichment score": 0.0554}
{"Change": "L3S", "normalised enrichment score": 0.434}
{"Change": "L7W", "normalised enrichment score": 0.294}
{"Change": "R5W", "normalised enrichment score": 0.209}
{"Change": "F9D", "normalised enrichment score": -0.132}
{"Change": "F9G", "normalised enrichment score": 0.184}
{"Change": "S10T", "normalised enrichment score": 0.144}
{"Change": "S8L", "normalised enrichment score": 0.611}
{"Change": "Q6Y", "normalised enrichment score": 0.59}
{"Change": "Q6R", "normalised enrichment score": 0.595}
{"Change": "Q2P", "normalised enrichment score": 0.666}
{"Change": "S10K", "normalised enrichment score": 0.153}
{"Change": "S8W", "normalised enrichment score": 0.328}
{"Change": "Q2R", "normalised enrichment score": -0.0061}
{"Change": "R4Q", "normalised enrichment score": -0.00322}
{"note": "A few entries again (series 2):"}
{"Change": "N85E", "relative binding score [%]": 80.8}
{"Change": "R123A", "relative binding score [%]": 101}
{"Change": "V145D", "relative binding score [%]": -6.31}
{"Change": "F15R", "relative binding score [%]": 39.1}
{"Change": "R88Q", "relative binding score [%]": 78}
{"Change": "S59E", "relative binding score [%]": 87.2}
{"Change": "F124Y", "relative binding score [%]": 95.5}
{"Change": "I162T", "relative binding score [%]": 19.2}
